Experimental data pooled from the literature.
Every numbered part comes from another study and shows a few of its results, in no order.

Series 1
Target: Fragile X messenger ribonucleoprotein 1, C-terminal low-complexity region (Fmr1, Mus musculus, UniProt P35922)
Technique: RNA Bind-n-Seq
Form: RNA
Matrix: in vitro
Tested at: 200 nM
Setting: whole 134-nt RNA, ends assumed
With: 150 mM KCl
Reference: input library
Direction: higher = stronger binding
| Sequence | log2 enrichment |
| --- | --- |
| GGGAGUUCUACAGUCCGACGAUCUGGCCCUGGUGGCAUGCGGGGAGGAAUAGGUGGCCUCAUGGAUCGUGGUGGUCCCGGUGGAAUGUUCAGAGGUGGCCGUGGUGGAGACAGUGGAAUUCUCGGGUGUCAAGG | -0.018 |
| GGGAGUUCUACAGUCCGACGAUCCACAGACAACACGCACCCACACAGACACAGAGGGAAGGGGUUGGGAUGGGGACAGGGUGCACAGCAGGGCGGGGUAGGACCCCAGGCCCUUGGAAUUCUCGGGUGUCAAGG | 1.24 |
| GGGAGUUCUACAGUCCGACGAUCUCCUGUGCUACACAUCGUAUGUACCGAAUCGGGGUUUUUUUGGGGAAAAAGGGGAGGGGAAAGUAUUAUGUUACGCCGUUCGGAUCUGCAUGGAAUUCUCGGGUGUCAAGG | 0.754 |
| GGGAGUUCUACAGUCCGACGAUCCAAGUCCUGUGCUACACAUCGUAUGUACCGAAUCGGCCCCGGCCCCGGGCCCCGGAAAGUAUUAUGUUACGCCGUUCGGAUCUGCACUUCUGGAAUUCUCGGGUGUCAAGG | -0.44 |

Series 2
Target: Histone acetyltransferase KAT6A, both winged helices, GST fusion (KAT6A, Homo sapiens, UniProt Q92794, residues 1-181)
Technique: protein binding microarray
Form: double-stranded DNA, one strand shown
Matrix: in vitro
Tested at: not given
Setting: 8-mer, flanks averaged, mean of 2 arrays, mostly near background
Reference: not given
Direction: higher = stronger binding
Target sequence (chain): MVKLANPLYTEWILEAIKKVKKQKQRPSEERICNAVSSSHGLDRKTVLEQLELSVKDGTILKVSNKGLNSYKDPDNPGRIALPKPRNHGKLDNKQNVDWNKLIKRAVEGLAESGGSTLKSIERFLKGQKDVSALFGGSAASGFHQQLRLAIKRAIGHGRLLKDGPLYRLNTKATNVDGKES
| Sequence | E-score |
| --- | --- |
| CGGGACCA | 0.0824 |
| AAATAGAG | -0.141 |
| CATCTGAG | -0.0914 |

Mixed results
UNK zinc fingers 1-6, GST-SBP tag: RING finger protein unkempt homolog, zinc fingers 1-6, GST-SBP tag (UNK, Homo sapiens, UniProt Q9C0B0, residues 30-357)
Sequence of UniProt Q9C0B0 (30-357, looked up): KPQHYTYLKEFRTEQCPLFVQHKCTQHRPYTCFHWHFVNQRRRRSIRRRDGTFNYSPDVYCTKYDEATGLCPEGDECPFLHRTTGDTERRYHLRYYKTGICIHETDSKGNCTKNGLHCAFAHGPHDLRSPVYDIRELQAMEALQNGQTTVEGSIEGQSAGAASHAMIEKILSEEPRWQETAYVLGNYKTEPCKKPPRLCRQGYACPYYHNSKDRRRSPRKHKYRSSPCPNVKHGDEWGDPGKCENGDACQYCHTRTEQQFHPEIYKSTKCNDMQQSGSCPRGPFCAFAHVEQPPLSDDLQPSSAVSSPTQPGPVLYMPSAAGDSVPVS
| Molecule | target | assay | test system | setting | scale | endpoint | result |
| --- | --- | --- | --- | --- | --- | --- | --- |
| GGGAGUUCUACAGUCCGACGAUCAAUGGUACUUCAGCAGCACUGCGUGAAACUGGGGUUAUUGAAAAACUGUUAACCUCUUACGGAUUUAUUCAGUGUUCAGAACGUCAAGCUAGACUUUUCUUCCACUGUUCACAGUAUAAUCAACAGAGGAUUGAGCAUCA | UNK zinc fingers 1-6, GST-SBP tag | RNA Bind-n-Seq | RNA, in vitro | not given, RNA with constant flanks, human and mouse sites, ends assumed | reference: input RNA pool, higher = stronger binding | bound/input enrichment | 0.114 ratio |
| PhoQ, residues 284 288 289 292 302 303 AGHLVA | PhoP, residues 12 14 15 18 19 DLLYY (Escherichia coli, UniProt P23836) | Sort-seq, refers to: YFP reporter | E. coli | PhoQ-PhoP variant library, with: 10 µM Mg2+ | reference: high Mg2+ state, higher = stronger signaling | fold induction | 1.95 |
| GGGAGUUCUACAGUCCGACGAUCCUGGCCUGGCCCUCCCCAGGGGCCUCCUUUCGUAUAGUCACUGCUUCUGCAUCAGAUACUUUCAGCUGCAACUCCCUACUGGGUGGGGCACCCAUUUGAGGCAGGGUUUGGUGCCCCCCUCAACAGAGGAUUGAGCAUCA | UNK zinc fingers 1-6, GST-SBP tag | RNA Bind-n-Seq | RNA, in vitro | not given, RNA with constant flanks, human-mouse chimeric sites, ends assumed | reference: input RNA pool, higher = stronger binding | bound/input enrichment | 0.325 ratio |
| GGGAGUUCUACAGUCCGACGAUCAUCUCUCACUUACCUGAGUCCGAAUCCGCUAUGAGGGUUUGAAACAUUUCAUGUUUCAUGUUAAACUACACUGGCAGGUGCUCAAAUACCAUCAUAGCGAGAUGAAAUACCAUCACAGUACAACAGAGGAUUGAGCAUCA | RING finger protein unkempt homolog, zinc fingers 1-6, SBP tag (UNK, Homo sapiens, UniProt Q9C0B0, residues 30-357) | RNA Bind-n-Seq | RNA, in vitro | 100 nM, RNA with constant flanks, vertebrate orthologous sites, ends assumed | reference: input RNA pool, higher = stronger binding | bound/input enrichment | 0.909 ratio |
| GGGAGUUCUACAGUCCGACGAUCACACAAUAUGAGACCAACAGCAUGGACUUCAAAGUUGGGGCGGAUGGGACAGUCUUCGCCACCCGGGAGCUGCAGGUCCCCUCCGAGCAGGUGGCCUUCACGGUGACUGCAUGGGACAGCCAACAGAGGAUUGAGCAUCA | UNK zinc fingers 1-6, GST-SBP tag | RNA Bind-n-Seq | RNA, in vitro | not given, RNA with constant flanks, human-mouse chimeric sites, ends assumed | reference: input RNA pool, higher = stronger binding | bound/input enrichment | 0.396 ratio |

For quick reference, copied from above (mixed results):
| Molecule | target | assay | test system | setting | scale | endpoint | result |
| --- | --- | --- | --- | --- | --- | --- | --- |
| GGGAGUUCUACAGUCCGACGAUCAAUGGUACUUCAGCAGCACUGCGUGAAACUGGGGUUAUUGAAAAACUGUUAACCUCUUACGGAUUUAUUCAGUGUUCAGAACGUCAAGCUAGACUUUUCUUCCACUGUUCACAGUAUAAUCAACAGAGGAUUGAGCAUCA | UNK zinc fingers 1-6, GST-SBP tag | RNA Bind-n-Seq | RNA, in vitro | not given, RNA with constant flanks, human and mouse sites, ends assumed | reference: input RNA pool, higher = stronger binding | bound/input enrichment | 0.114 ratio |
| PhoQ, residues 284 288 289 292 302 303 AGHLVA | PhoP, residues 12 14 15 18 19 DLLYY (Escherichia coli, UniProt P23836) | Sort-seq, refers to: YFP reporter | E. coli | PhoQ-PhoP variant library, with: 10 µM Mg2+ | reference: high Mg2+ state, higher = stronger signaling | fold induction | 1.95 |
